Experimental data gathered from unrelated publications.
Parts stem from different laboratories: compare values within a part only. Changes are numbered by the printed parent chain.

Study 1
Target: RNA binding protein fox-1 homolog 2, RRM domain, GST-SBP tag (RBFOX2, Homo sapiens, UniProt O43251-10, residues 100-194)
Method: RNA Bind-n-Seq
Molecule type: RNA
Sample: in vitro
Tested at: 365 nM
Setting: natural RNA segment, single round, ends assumed
Reference: no-protein control
Direction: higher = stronger binding
Constant ends, left off below: GGGAGUUCUACAGUCCGACGAUC … UGGAAUUCUCGGGUGCCAA
| Strand | RBNS enrichment (R) |
| --- | --- |
| AUUGAAUUAUACUCACCAACACAUAGAACAGGCCCUUUAGAAGGCACUAGGUGUUUGGAGGUGAGCUAGGAAGACCAGUGGUAUGUUGAGCCCCUUACAGAUAAGCACCG | 0.376 |
| UCCCGGAGACCCACCGGGAGGGCGCCGCCAUGCCUUGUACCCCCACCGUGCAGGUUGUGGCCGGUUUUCUCCGCAGGUUGAACAUGGAAAUAAAAGCAAACUUGUAUGAA | 0.372 |
| AGUUACGUCAAACAUACAUCUCAAUAUUUCUUAAGAAGCAAACGGGGGCACCAGUCUUGGCUUUUAGGAAGCUCUGUUUAACUUACACAUAAGUUCUUAAGAUGUGUUGG | 0.437 |
| CCUUUUAGGAUCUAGACAUACGGGUAAGACAUGACUCUCCCUGGAGCAGCUCUCUGCAGAACAAAAACUAAUUCAAUGAAGCAGCUGUCCCUCCCAGUGUUUGCAGAGCU | 0.481 |
| AACUCACUGUUCCCCAGCACAGCACAGCUGCAUGACCUCAGCUUCAGACUGAUGUCAGCCAGCCUUCUUGGAACACAUUGCUAUUCAUUGUGGAUGCCACACAGUCCAUC | 0.394 |
| ACUCUCAGCUUGCAGGUCUUCGUGAGUCACUGAGAGGAUUCCAGGCAGCUAUCUCGAGAGCCACUGCUAGAACACCUUUUCCUGGAGGCUGCCCCACCAAAUGCUCAACC | 6.41 |
| GCUUGAGUGCUAUGCAAAUAGUAAGUAGUGUAGUGGUGAUUUUUCUUUGCAUGUUGUGUGUGAUAUACCUAGCCAGAAAUAGAUGUGGCUUUUGUUUUGGGGGCAGAUUA | 11.3 |
| CACCCAACUCCCUCUGCCUCUCCCCAAACCGGGCCGCCAGGAUCCCUCCCCGCGGCAGCGAUGGCCCGAGCCAUGAGAGUGAGGACUUUCCGCGCCCAUUGGUGACCCUU | 0.37 |

Study 2
Target: Sal-like protein 4, full length isoform B (SALL4, Homo sapiens, UniProt Q9UJQ4-2, residues 1-616)
Method: universal PBM
Molecule type: double-stranded DNA, one strand shown
Sample: in vitro
Tested at: not given
Setting: 8-mer, flanks averaged, mean of replicates
Direction: higher = stronger binding
Target sequence (chain): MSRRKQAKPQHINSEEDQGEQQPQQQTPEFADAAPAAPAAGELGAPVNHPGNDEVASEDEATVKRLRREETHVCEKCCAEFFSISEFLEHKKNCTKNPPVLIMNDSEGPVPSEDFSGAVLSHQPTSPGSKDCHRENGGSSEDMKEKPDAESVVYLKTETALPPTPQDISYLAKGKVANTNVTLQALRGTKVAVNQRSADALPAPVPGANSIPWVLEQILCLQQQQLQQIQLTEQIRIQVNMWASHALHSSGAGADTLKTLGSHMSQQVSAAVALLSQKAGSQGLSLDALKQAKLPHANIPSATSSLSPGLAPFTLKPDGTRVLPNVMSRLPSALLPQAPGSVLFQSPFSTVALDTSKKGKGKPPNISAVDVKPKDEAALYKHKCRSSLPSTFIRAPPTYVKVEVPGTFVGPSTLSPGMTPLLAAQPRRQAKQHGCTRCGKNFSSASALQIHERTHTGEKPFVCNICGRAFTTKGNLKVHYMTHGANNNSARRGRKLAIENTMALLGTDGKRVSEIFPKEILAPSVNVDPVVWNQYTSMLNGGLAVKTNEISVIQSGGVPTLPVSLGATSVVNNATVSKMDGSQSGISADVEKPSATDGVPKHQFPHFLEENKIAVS
| Strand | E-score |
| --- | --- |
| AGCGTAAT | 0.17 |
| AGAGACTA | 0.0201 |
| AGTTAAAG | -0.0447 |
| GCTAGTCA | -0.0854 |
| GCGTTAGA | -0.0809 |
| CATAGGCC | 0.00286 |
| CCGAGAGC | -0.256 |
| GCGAGAGC | -0.226 |
| AGGCAGAA | 0.0683 |
| CAGTGATA | 0.114 |
| GGGTTTAA | 0.093 |
| AAGTAATA | 0.311 |
| AAAGCTAT | 0.221 |
| AAGAAACC | -0.122 |
| GGTGAGGA | -0.129 |
| AACATCGG | -0.111 |
| CAATCGTA | 0.182 |
| GAACGTTA | -0.00564 |
| CCATGCAA | 0.144 |
| AGGGGCCC | -0.374 |
| CATCAAGA | 0.0696 |
| CCGTTACA | 0.0263 |
| CCCTGGCG | -0.332 |
| CCGTGATA | 0.0124 |
| GTCCCGCA | -0.223 |

Study 3
Target: Interferon regulatory factor 5, full length, phosphomimetic (IRF5, Homo sapiens, UniProt Q13568-2, residues 1-514, K96S/S451D/S453D/S456D/S462D)
Method: protein-binding microarray
Molecule type: double-stranded DNA, one strand shown
Sample: in vitro
Tested at: 250 nM
Setting: 60-bp whole probe
With: salmon DNA 0.4 mg/ml
Reference: random background probes
Direction: higher = stronger binding
Constant ends, left off below: GCCTAGCAC … GTCTTGATTCGCTTGACGCTGCTG
| Strand | log fluorescence |
| --- | --- |
| TCAGGTCTCCCTTGAGGACTGTGCTAG | -0.363 z-score |
| GACGATTTCGGGTTTCGTGACGTGCTA | 3.88 z-score |
| GACGGACTCGACTTTCGGGACGTGCTA | 4.94 z-score |
| TTATATTTCAGTATCGATTAGTGCTAG | 8.57 z-score |
| TTAGGTTTCGGGTTTCAGTTAGTGCTA | 8.69 z-score |
| TCACTCTTCTGGATCTCACTGTGCTAG | 0.269 z-score |
| TTCCAACTCTGTTTTCGCTTGTGCTAG | 2.87 z-score |
| TTAGGTCTCCTTATCATTTAGTGCTAG | 0.0584 z-score |
| TTAAGACTGGACTATCGGTTAGTGCTA | 5.79 z-score |
| GACGATTTAGGGTATCGAGACGTGCTA | 0.406 z-score |
| GCCGGACTGGGTCTCGGGACGTGCTAG | -0.638 z-score |
| TTAGGACTGGGTATCCGTTAGTGCTAG | -0.195 z-score |
| TTAGGATTGCTTCTCCTTTAGTGCTAG | 0.151 z-score |
| TCAGGTTTACCAGATCATCTGGTGCTA | -0.409 z-score |
| TTAGGTCTCCTTATCCTTGAGTGCTAG | -0.278 z-score |
| AGTGGGGAGGGAGAGAATCCGTGCTAG | 0.0689 z-score |
| TCATACCTCATCTTTCCCACTGTGCTA | 0.516 z-score |
| GACGGTATTGGTCTCGGGACGTGCTAG | 0.479 z-score |
| TTAGGTTTCGGTTTCGGTTGGTGCTAG | 11.6 z-score |

Study 4
Target: CCNE1, cyclin fold, Cln2 fusion (human)
Method: yeast growth competition, sequencing
Sample: yeast
Setting: weak parent motif
Reference: not given
Direction: higher = stronger binding
Parent: ORC1 docking peptide (human); PRARKRLELGNLG
| Substitution | normalised enrichment score |
| --- | --- |
| L7Y | 0.102 |
| R4F | -0.201 |
| R4L | 0.27 |
| L7S | 0.00569 |
| G13W | 0.0339 |
| N11D | 0.128 |
| A3G | -0.595 |
| R2N | 0.576 |
| P1D | 1 |
| R6D | 0.337 |
| P1S | -0.0666 |
| A3R | -0.191 |
| L7G | -0.505 |
| G13K | 0.952 |
| G10E | 0.208 |
| L9T | 0.22 |
| E8S | 0.41 |
| L12R | -0.325 |
| L7T | -0.455 |
| A3C | 0.925 |
| K5Q | -0.261 |
| P1N | 1.24 |
| L9V | 1.04 |
| N11E | -0.0365 |
| R2T | 1.2 |
